Measured values of several laboratories.
Each line is one published result; not all experiments were run side by side.

For `C[C@@H](Oc1ccc(S(C)(=O)=O)cc1C(=O)N1C[C@@H]2C[C@]2(c2cc(C(F)(F)F)on2)C1)C(F)(F)F`, the stability period was 953 days (human K2-EDTA plasma; 20 °C).
`O=C(NCCN1CCCC1)c1cc(-c2ccc(CN3CCOCC3)cc2)nc2ccc(F)cc12` gave a stability duration of at most 1 h (human whole blood; ambient, citric acid buffer 100 mM, 1/1 v/v).
With `[Cl-].c1csc([I+]c2cccs2)c1` the stability time was over 24 h (mouse plasma extract; 4 °C).
The stability of `CCC[C@H](N[C@@H](C)C(=O)N1[C@H](C(=O)O)C[C@@H]2CCCC[C@@H]21)C(=O)O` is reported as 95.1% (human whole blood; 0.5 ng/mL, 30 h, 8 °C, autosampler, low QC).
For `CCN(CC)Cc1ccc2cc(COC(=O)Nc3ccc(C(=O)NO)cc3)ccc2c1`, “stability relative error” read 105% (rat plasma; 3200 ng/mL, 3 h, room temperature; baseline: nominal concentration).
Under stability, `COC(=O)/C=C/c1cc(C(=O)NCc2ccc(C)cc2)cc(-c2ccc3ncnn3c2)c1` is recorded as “stable” (simulated gastric fluid; 1 h).
With `Cc1c2c(c(O)c3c(OC(=O)c4ccccn4)cccc13)C(=O)[C@]1(O)C(=O)C(C(N)=O)=C(O)[C@@H](N(C)C)[C@@H]1C2` the stability time was at least 16 h (LC-MS; Escherichia coli cell lysate).
`C1=C/COCc2cc(ccc2OCCN2CCCC2)Nc2nccc(n2)-c2cccc(c2)COC/1` — result for “stability relative error”: 0.77% (rat plasma; 600 ng/mL, three freeze-thaw cycles; baseline: nominal concentration).
`O=C(N/N=C/c1ccccc1O)c1ccncc1` gave a stability of 94.5% (ADS buffer; 4 µM, 7 days, -80 °C, long-term storage).
The stability time of `CC(=O)N[C@H]1[C@H]([C@H](O)[C@H](O)CO)OC(C(=O)O)=C[C@@H]1N=C(N)N` is reported as at least 36 h (HBSS; room temperature).

Excerpt of the above:
For `C[C@@H](Oc1ccc(S(C)(=O)=O)cc1C(=O)N1C[C@@H]2C[C@]2(c2cc(C(F)(F)F)on2)C1)C(F)(F)F`, the stability period was 953 days (human K2-EDTA plasma; 20 °C).
